Measured values gathered from unrelated publications.
Protocols differ between the studies behind these lines. ± gives the spread as reported.

For `Cc1ncc(Cl)cc1NC(=O)c1cc(-c2ccc(F)c(O)c2)on1`, the EC50 was over 100 µM (membrane potential, rhodamine uptake; isolated mouse liver mitochondria).
Under “sleeping time reduction”, `CCCn1cnc(C[C@H](NC(=O)c2nccnc2N)C(=O)N2CCC[C@H]2C(N)=O)c1` is recorded as 9.2% (Swiss albino mice; iv, 10 µmol/kg, added: pentobarbital 50 mg/kg ip; reference: control).
The spreading cells of `CC(C)[C@H](NC(=O)CN)C(=O)N[C@@H](CCCCN)C(=O)NCC(=O)N[C@@H](CC(=O)O)C(=O)N[C@@H](CCCCN)C(=O)NCC(=O)N[C@@H](CC(N)=O)C(=O)N1CCC[C@H]1C(=O)NCC(=O)N[C@@H](Cc1c[nH]c2ccccc12)C(=O)N1CCC[C@H]1C(=O)NCC(=O)N[C@@H](C)C(=O)N1CCC[C@H]1C(=O)O` is reported as 0% (bovine aortic endothelial cells, bovine; 100 µg/mL coating, peptide-coated plates).
For `CC(=O)C12NC(C)(C)CC1(C)C(=O)C1=C2c2c(c3c4n2C(C)(C)CC2=C4C4(CC(C)(C)NC(C)(C4)C2=O)CC3(C)C)C(=O)C(C)(C)N1` (single isomer, unassigned; (+)), the inhibition was 38.4 ± 2.6% (acetic acid-induced writhing; mouse; intraperitoneal, 0.04 mg/kg, 0.5 h, writhes counted over 30 min).
`CCOC(=O)c1cc2c(N)c(C(=O)OC)sc2nc1C`: urinary osmolality “decreased” (Sprague-Dawley rats; subcutaneous, 100 mg/kg every 8 h, long-term dosing; reference: vehicle).
Under “stool form score”, `CN1Cc2c(Cl)cc(Cl)cc2C(c2cccc(S(=O)(=O)NCCOCCOCCNC(=O)C(O)C(O)C(=O)NCCOCCOCCNS(=O)(=O)c3cccc(C4CN(C)Cc5c(Cl)cc(Cl)cc54)c3)c2)C1` (stereo not drawn) is recorded as 1.5 (Sprague Dawley rats; oral, 3 mg/kg, 16 h; higher = more watery).
For `C=C(c1cc(F)c(C(=O)O)c(F)c1)c1cc2c(cc1C)C(C)(C)CCC2(C)C`, “log2 fold change” read 0.17 (RNA sequencing, refers to: Abca1 mRNA; rat, brain; dose not given, 24 h, single dose; reference: vehicle).
Under platelet aggregation, `C[N+](C)(CI)CCO` is recorded as “no effect” (aggregometry; mouse platelet-rich plasma; 20 µM, added: with or without ADP).
Under “protein level increase”, `Cc1nc(C)c(C=[N+]([O-])C(C)(C)C)nc1C` is recorded as 84.8% (Western blot, refers to: MEF2D; mouse, MPTP model, substantia nigra nuclei; 90 mg/kg).
`CN(C)C(=O)c1ccnc(N2Cc3cn(Cc4ccc(F)cc4F)nc3C2)n1` — result for “effect size d”: 1.79 (paired-pulse ratio; hippocampal Schaffer collaterals, mouse; concentration not given, interval 100 ms, unit not given; reference: vehicle).
Under vimentin level, `O=C1O/C(=C\c2cc(F)ccc2OCCN2CCOCC2)c2cc(Cc3cccc(F)c3)[nH]c(=O)c21` is recorded as “decreased” (Western blot; rat, bleomycin-induced pulmonary fibrosis, lung; intraperitoneal, 5.0 mg/kg twice daily, 28 days).
With `Cc1c(C)c(C)[c-](C)c1C.O=C1c2cccc[n+]2[Ir]([Cl])[N]1CCCCCCCCCC[P+](c1ccccc1)(c1ccccc1)c1ccccc1.[Br-]` the yield was 85% (4-hydroxynonenal reduction; PBS/DMSO; 24 h, 37 °C, 1 mol% catalyst, added: excess sodium formate).
With `COc1ccc2occ(/C=C/C(=O)N3CCN(C(=S)SCCN(C)C)CC3)c(=O)c2c1` the protective effect was 59.4 ± 2.1% (tomato spotted wilt virus; viral infection, half-leaf method; Nicotiana glutinosa; 500 µg/mL).
For `CC12CC(O)C3CC1(OC1OC(CO)C(O)C(O)C1O)C3(COC(=O)c1ccccc1)C(=O)O2` (stereo not drawn), the ptosis score was 2.7 (pseudo-germ-free mice, reserpine model; 14 mg/kg, 7 days, scale up to 4; direction not given).
`Cc1cc(O)c(C=O)c2c1C(=O)Oc1c(CO)c(O)c3c(c1O2)C(O)OC3=O` (stereo not drawn) gave a body weight of 179 ± 5.91 g (rat male, streptozotocin diabetic; 10 mg/kg, 9 weeks).
For `CC(C)CSC(=S)N1CCN(C(=O)/C=C/c2coc3ccccc3c2=O)CC1`, the curative effect was 48.3 ± 3.5% (tomato spotted wilt virus; viral infection, half-leaf method; Nicotiana glutinosa; 500 µg/mL).
Under “latency of nociceptive response”, `COc1ccc2c(c1)c(CC(=O)OCC(=O)c1ccccc1)c(C)n2C(=O)c1ccc(Cl)cc1` is recorded as 14.6 ± 0.92 s (hot plate test; BALB/c mice; 100 mg/kg, 30 min).
For `Cc1cc(N)c2ccccc2[n+]1CCCCCCCCCCCCCC[n+]1c(C)cc(N)c2ccccc21`, “colony growth ex vivo” read “no effect” (NOD/SCID mice, SK-N-AS xenograft, tumour cells in methylcellulose; 2.5 mg/kg, 18 days).
With `COc1c2c(cc3oc(C)cc(=O)c13)O[C@H](C(C)(C)O[C@@H]1O[C@H](CO)[C@@H](O)[C@H](O)[C@H]1O)C2` the inhibition was 12% (ear edema weight; mouse, xylene ear edema; oral, 4 mg/kg; reference: vehicle).
`COc1ccc(C2CC(c3ccc(C)cc3)=Nc3ccccc3S2)cc1OC` (stereo not drawn) gave a body weight of 191 ± 4.39 g (Wistar rat, STZ-induced diabetes; oral, 20 mg/kg once daily, day 7).
For `CC(C)c1cnc(-c2cc(Cl)ccc2F)cc1Nc1ccncc1C(=O)NC(CO)CO`, the inhibition was 60% (SMAD2 phosphorylation; mouse, 4T1 tumour, tumour; 30 mg/kg twice daily then once, 0 to 8 h after last dose, normalized average).
For `C=C(c1ccc(C(=O)O)c(F)c1)c1cc2c(cc1C)C(C)(C)C=CC2(C)C`, “log2 fold change” read -1.14 (RNA sequencing, refers to: Acot1 mRNA; rat, brain; dose not given, 24 h, single dose; reference: vehicle).
`COc1ccc(C2CC(c3ccc(C)cc3)=Nc3ccccc3S2)cc1` (stereo not drawn) has a body weight of 191 ± 4.11 g (Wistar rat, STZ-induced diabetes; oral, 10 mg/kg once daily, day 1).
`CCOP(=O)(CC(=O)Nc1ccc(S(=O)(=O)N(CC(N)=O)c2ccc(N(CC(N)=O)S(=O)(=O)c3ccc(OC)cc3)c3ccccc23)cc1)OCC`: mRNA level “increased” (refers to: HO-1, NQO1 and GPX4; APP/PS1 mice, hippocampus and frontal cortex; 40 mg/kg; reference: untreated APP/PS1 mice).
`CC1(CN)CCN(c2cnc(Sc3cccc(Cl)c3Cl)c(N)n2)CC1` — result for mRNA level: “inhibited” (qPCR, refers to: Il23a and inflammatory factors; imiquimod psoriasis mice, back skin; dose not given).
`CC[C@H](C)[C@@H]1NC(=O)[C@H](Cc2ccc(O)cc2)NC(=O)[C@@H](N)CSSC[C@@H](C(=O)NCC(=O)N[C@@H](CCCCNC(=O)COCCOCCNC(=O)COCCOCCNC(=O)CC[C@H](NC(=O)CC[C@H](NC(=O)CCCCCCCCCCCCCCCCC(=O)O)C(=O)O)C(=O)O)C(=O)NCC(N)=O)NC(=O)[C@H](CC(N)=O)NC(=O)[C@H](CCC(N)=O)NC1=O`: “cumulative food intake” 29.4 ± 1.6 g (C57BL/6 mice, diet-induced obese; subcutaneous, 2 µmol/kg daily, 14 days).
The ED90 of `C=CC(=O)N1C[C@H](C)N(c2nc(OC[C@@]34CCCN3C[C@H](F)C4)nc3c(F)c(-c4ccc(F)c5sc(N)c(C#N)c45)c(C(F)(F)F)cc23)C[C@H]1C` is reported as 1.6 mg/kg (tumour growth; mouse, NCI-H358 xenograft; oral, once daily, 28 days).
`Cc1cc(=O)[nH]c2ccc(OCCCC(=O)N3CCN(C)CC3)cc12`: “contraction rate increase” 32 ± 4% (rat, isolated spontaneously beating atria; 100 µM; reference: baseline).
For `CC/C=C\C/C=C\C/C=C\C/C=C\C/C=C\CCCCOC(CC)C(=O)O` (stereo not drawn), “hepatic triglycerides change” read -48% (APOE*3Leiden.CETP mice, high-fat diet; dose not given, 6 weeks, after 20 weeks diet; reference: control).
`CC[C@H]1[C@@H](O)[C@@H]2[C@H](CC[C@]3(C)[C@@H]([C@H](C)CCOS(=O)(=O)[O-])CC[C@@H]23)[C@@]2(C)CC[C@@H](O)C[C@@H]12.[Na+]`: “whole-body fat mass” 21 ± 0.7 g (EchoMRI; ob/ob NASH mouse model; oral, 3 mg/kg once daily, 8 weeks).
Under B cells, `CC1=C(O)C(=O)C=C2C1=CC=C1[C@@]2(C)CC[C@@]2(C)[C@@H]3C[C@](C)(C(=O)NCCOCCOCCOCCOCC(=O)N[C@H](C(=O)N4C[C@H](O)C[C@H]4C(=O)N[C@@H](C)c4ccc(-c5scnc5C)cc4)C(C)(C)C)CC[C@]3(C)CC[C@]12C` is recorded as “no effect” (flow cytometry; mouse, B16-F10 melanoma model, spleen and blood; ip, 2 doses of 1.8 mg/kg).
`O=C(NC1CCCCC1)C(c1ccccc1)N(C(=O)CCl)c1ccc(F)cc1` (racemic): “off-target molecular weight” 38 kDa (competitive ABPP; MDA-MB-435 soluble proteome; 5 µM, added: CA-Rh probe).
For `COc1cc2c(cc1OC)-c1cc3ccc(OC)c(OC)c3c[n+]1CC2`, the AST activity was 70.9 ± 2.11 U/L (rat, STZ-induced diabetic, serum; oral, 12 mg/kg, day 28).
`Cc1cnc(C(=O)N[C@@H](Cc2cn(Cc3ccccc3)cn2)C(=O)N2CCC[C@H]2C(N)=O)cn1` — result for “sleeping time reduction”: 45.5% (Swiss albino mice; iv, 10 µmol/kg, added: pentobarbital 50 mg/kg ip; reference: control).
Under “occlusion time increase”, `CCCCCCCCCCCCCCCC(=O)N[C@@H](CCCCN)C(=O)N[C@@H](CCCCN)C(=O)N[C@@H](CO)C(=O)N[C@@H](CCCNC(=N)N)C(=O)N[C@@H](C)C(=O)N[C@@H](CC(C)C)C(=O)N[C@@H](Cc1ccccc1)C(N)=O` is recorded as 4 fold (guinea pig; intravenous infusion, above 0.05 mg/kg, 10 min infusion, maximum 60 min; reference: vehicle).
`COc1ccc2c(c1)c(CC(=O)OCOC(C)=O)c(C)n2C(=O)c1ccc(Cl)cc1`: “latency of nociceptive response” 15.9 ± 1.07 s (hot plate test; BALB/c mice; 75 mg/kg, 120 min).
For `CCCN(c1ccc(C(=O)NCCC(=O)O)cc1)S(=O)(=O)c1cc(C)c(-c2ccc(C(C)(C)C)cc2)c(C)c1`, “non-fasting blood glucose” read “decreased” (HFD-induced obese mouse; oral, 50 mg/kg once daily, weeks 3 and 4).
For `CC(C)CN(CC(C)C)C(=O)/C=C/C=C/c1ccc2c(c1)OCO2`, “PTZ seizure threshold” read 55.8 ± 2.8 mg/kg PTZ (C57BL/6N mice; ip, 30 mg/kg, 30 min before PTZ, added: PTZ iv infusion).
For `CCN(CC)C(=O)c1ccc(-c2cc(NCCCN3CCCCC3)c3ccccc3n2)cc1`, fasting insulin read “decreased” (diet-induced obese mice; food admixture, 0.05% w/w in diet, 2 weeks).

Excerpt of the above:
Under “occlusion time increase”, `CCCCCCCCCCCCCCCC(=O)N[C@@H](CCCCN)C(=O)N[C@@H](CCCCN)C(=O)N[C@@H](CO)C(=O)N[C@@H](CCCNC(=N)N)C(=O)N[C@@H](C)C(=O)N[C@@H](CC(C)C)C(=O)N[C@@H](Cc1ccccc1)C(N)=O` is recorded as 4 fold (guinea pig; intravenous infusion, above 0.05 mg/kg, 10 min infusion, maximum 60 min; reference: vehicle).
`COc1ccc2c(c1)c(CC(=O)OCOC(C)=O)c(C)n2C(=O)c1ccc(Cl)cc1`: “latency of nociceptive response” 15.9 ± 1.07 s (hot plate test; BALB/c mice; 75 mg/kg, 120 min).
